Assay results collected from several papers.
Values joined by “and” are separate records of one study, mostly repeats; a detail may differ. ± marks the error that the study gave. ≈ marks a conversion by molar mass, not a printed value.

Compound | tested on | test | test system | setting | scale | endpoint | value
Nc1ncc(-c2cc(-c3cnn(CC(F)(F)F)c3)ncc2F)nc1C(=O)NC1CNCC(F)C1 (centres unmarked) | ABL1(E255K)-phosphorylated | KINOMEscan competition binding |  | 1 µM | reference: DMSO control | remaining binding | 74%
Cc1cc(Oc2nc(N3CC[C@@H](c4ccncc4)C3)ncc2F)[nH]n1 | Mycobacterium tuberculosis | OD | H37Rv PurF CRISPRi knockdown | 0.25 µM, with: anhydrotetracycline low |  | normalised growth | 2%
CN1C(=O)C(C2C3=C(CCCC3=O)Oc3ccc(Br)cc32)C(=O)N(C)C1=O (centres unmarked) | 3T3-L1 pre-adipocytes | cell viability, MTT |  | 72 h |  | IC50 | > 100 µg/mL
CSCC[C@H](N)C(=O)N[C@@H](C)C(=O)N[C@@H](CCCNC(=N)N)C(=O)N[C@@H](CCCNC(=N)N)C(=O)N[C@@H](CC(=O)O)C(=O)N[C@@H](CCCCN)C(=O)N[C@H](C(=O)N[C@@H](CC(=O)O)C(=O)N[C@@H](Cc1ccccc1)C(=O)N[C@@H](C)C(=O)N[C@@H](CCCNC(=N)N)C(=O)N[C@@H](CCCNC(=N)N)C(=O)N[C@@H](CCCNC(=N)N)C(=O)N[C@@H](CCCNC(=N)N)C(=O)NCCCCCC(=O)NCCCCC(NC(=O)CCCCCNC(=O)[C@H](CCCNC(=N)N)NC(=O)[C@H](CCCNC(=N)N)NC(=O)[C@H](CCCNC(=N)N)NC(=O)[C@H](CCCNC(=N)N)NC(=O)[C@H](C)NC(=O)[C@H](Cc1ccccc1)NC(=O)[C@H](CC(=O)O)NC(=O)[C@@H](NC(=O)[C@H](CCCCN)NC(=O)[C@H](CC(=O)O)NC(=O)[C@H](CCCNC(=N)N)NC(=O)[C@H](CCCNC(=N)N)NC(=O)[C@H](C)NC(=O)[C@@H](N)CCSC)[C@@H](C)O)C(=O)NCCCCC(NC(=O)C(CCCCNC(=O)CCCCCNC(=O)[C@H](CCCNC(=N)N)NC(=O)[C@H](CCCNC(=N)N)NC(=O)[C@H](CCCNC(=N)N)NC(=O)[C@H](CCCNC(=N)N)NC(=O)[C@H](C)NC(=O)[C@H](Cc1ccccc1)NC(=O)[C@H](CC(=O)O)NC(=O)[C@@H](NC(=O)[C@H](CCCCN)NC(=O)[C@H](CC(=O)O)NC(=O)[C@H](CCCNC(=N)N)NC(=O)[C@H](CCCNC(=N)N)NC(=O)[C@H](C)NC(=O)[C@@H](N)CCSC)[C@@H](C)O)NC(=O)CCCCCNC(=O)[C@H](CCCNC(=N)N)NC(=O)[C@H](CCCNC(=N)N)NC(=O)[C@H](CCCNC(=N)N)NC(=O)[C@H](CCCNC(=N)N)NC(=O)[C@H](C)NC(=O)[C@H](Cc1ccccc1)NC(=O)[C@H](CC(=O)O)NC(=O)[C@@H](NC(=O)[C@H](CCCCN)NC(=O)[C@H](CC(=O)O)NC(=O)[C@H](CCCNC(=N)N)NC(=O)[C@H](CCCNC(=N)N)NC(=O)[C@H](C)NC(=O)[C@@H](N)CCSC)[C@@H](C)O)C(N)=O)[C@@H](C)O (some centres unmarked) |  | micro-CT of femur | mouse C57BL/6 female, RANKL-induced bone loss, femur | intraperitoneal, 130 mg/kg, 50 h, with: GST-RANKL 3 mg/kg co-injected, CR4-WHD-tet 150 mg/kg |  | trabecular separation | 1200 µm
C#CCNC(=O)C1(O/N=C(\C(=O)N[C@@H]2C(=O)N(OS(=O)(=O)O)C2(C)C)c2csc(N)n2)CC1 | Serratia marcescens | agar dilution | ATCC 21074 susceptible |  |  | MIC | 2 µg/mL (≈ 4 µM)
CC(C)(C)C(=O)OCOP(=O)(OCOC(=O)C(C)(C)C)C1CCCN(O)C1=O (centres unmarked) | HOP-62 |  |  |  |  | TGI | 6.63 µM
CCc1nc2ccccn2c1C(=O)NCc1ccc2oc(-c3ccc(OC(F)(F)F)cc3)nc2c1 | Mycolicibacterium smegmatis |  |  |  |  | MIC90 | > 100 µM
O=C(O)c1ccc(-c2nc(-c3ccccc3Cl)c3sccn23)cc1 |  |  | C57BL/6 mouse | dose not given, day -3, no 5-FU, basal haematopoiesis | reference: baseline | platelet count change | 100%
Cc1ccc(N2CC3CC(C2)N3C)cc1C(=O)NC1(c2ccc3c4c(cccc24)C(=O)N3C)CC1 | quail-PLpro | enzyme activity, inhibitor |  | 100 µM |  | inhibition | 29.5% and 29.2%
COc1ccccc1-c1n[nH]c2nc(N[C@H]3CC[C@H](NS(=O)(=O)CC(C)C)CC3)ncc12 |  | bead binding, competition bead pull-down, item: LINJ.26.0790 | Leishmania donovani extract | 10 µM | reference: vehicle | relative abundance | 0.86
CCc1nc2cc(Br)ccn2c1C(=O)NCc1ccc2oc(-c3ccc(Cl)cc3)nc2c1 | Mycolicibacterium smegmatis |  |  |  |  | MIC90 | > 100 µM
Cc1cc(C(=O)Nc2nc3cccc(C)c3n2[C@H]2CCCCN(C(=O)/C=C/CN(C)C)C2)ccn1 | Trypanosoma brucei | propidium iodide flow cytometry | bloodstream form | concentration not given, 16 h |  | cells in S phase | 17.5%
COc1ccccc1-c1n[nH]c2nc(NC3CCN(C(=O)Cc4ccc(F)cc4F)CC3)ncc12 |  | bead binding, competition bead pull-down, item: LINJ.28.2430 | Leishmania donovani axenic amastigote extract | 10 µM | reference: vehicle | relative abundance | 1.21
CC[C@H](C)[C@@H]1NC(=O)[C@H](Cc2c[nH]cn2)NC(=O)[C@H](CC(N)=O)NC(=O)[C@H](CO)NC(=O)[C@H](CCC(N)=O)NC(=O)[C@@H](NC(=O)CN)CSSC[C@@H]2NC(=O)CNC(=O)[C@H](C)NC(=O)[C@H](CC(C)C)NC(=O)[C@@H]3CSSC[C@@H](C(=O)NCC(=O)O)NC(=O)[C@H](Cc4ccccc4)NC(=O)CNC(=O)[C@H](CC(N)=O)NC(=O)[C@@H]4CCCN4C(=O)CNC(=O)[C@H](CSSC[C@H](NC(=O)[C@H](CCCNC(=N)N)NC(=O)[C@H](CC(N)=O)NC(=O)[C@H](Cc4c[nH]cn4)NC(=O)[C@H](CCCCN)NC(=O)[C@H](CC(C)C)NC1=O)C(=O)N[C@@H](CCCCN)C(=O)N[C@@H](CCC(N)=O)C(=O)N[C@@H](CC(=O)O)C(=O)N[C@@H](CO)C(=O)N[C@@H](CC(=O)O)C(=O)N3)NC(=O)[C@H](C(C)C)NC2=O | HEK293, Wnt1-transfected | Wnt signalling |  |  |  | IC50 | 0.051 ± 0.021 µM
